# Published values collected from several papers.
# Every numbered part comes from another study and shows a few of its results, in no order.

# Block 1
# Target: Centromere-binding protein 1, full length, N-terminal tag (CBF1, Saccharomyces cerevisiae, UniProt P17106, residues 1-351)
# Chain of UniProt P17106 (whole entry, looked up): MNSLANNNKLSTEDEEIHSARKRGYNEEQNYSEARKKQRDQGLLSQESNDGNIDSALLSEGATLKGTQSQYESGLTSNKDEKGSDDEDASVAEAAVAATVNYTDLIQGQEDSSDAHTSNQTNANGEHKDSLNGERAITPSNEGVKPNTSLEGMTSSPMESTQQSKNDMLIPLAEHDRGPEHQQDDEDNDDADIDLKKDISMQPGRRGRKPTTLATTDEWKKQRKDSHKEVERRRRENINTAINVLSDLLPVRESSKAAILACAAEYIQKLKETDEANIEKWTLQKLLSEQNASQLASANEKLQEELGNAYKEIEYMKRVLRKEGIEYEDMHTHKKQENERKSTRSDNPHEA
# Technique: protein-binding microarray
# Form: double-stranded DNA, one strand shown
# Medium: in vitro
# Tested at: 0.8 µM
# Setting: whole 60-bp probe, no competitor
# Direction: higher = stronger binding
Sequence,fluorescence intensity
CTAGCCTGCAATCGTCATCATATGAGAAATGGATTCGTCTTGATTCGCTTGACGCTGCTG,520 a.u.
CTAACGGTGAACTGTCACGAGAACCCTTACTTGTTCGTCTTGATTCGCTTGACGCTGCTG,980 a.u.
CTAACAGTGGAAGGTCACGAACGAGATTACCATTTCGTCTTGATTCGCTTGACGCTGCTG,610 a.u.
GAAGTGGTTAATTTACGCCTGATCACCTTATATTAGGTCTTGATTCGCTTGACGCTGCTG,596 a.u.

# Block 2
# Target: Protein C-ets-1 (ETS1, Homo sapiens, UniProt P14921, residues 1-441, full length assumed)
# Technique: protein-binding microarray
# Form: double-stranded DNA, one strand shown
# Medium: in vitro
# Tested at: not given
# Setting: k-mer, scored over probes, only values ≥0.25
# Direction: higher = stronger binding
# Residues (chain): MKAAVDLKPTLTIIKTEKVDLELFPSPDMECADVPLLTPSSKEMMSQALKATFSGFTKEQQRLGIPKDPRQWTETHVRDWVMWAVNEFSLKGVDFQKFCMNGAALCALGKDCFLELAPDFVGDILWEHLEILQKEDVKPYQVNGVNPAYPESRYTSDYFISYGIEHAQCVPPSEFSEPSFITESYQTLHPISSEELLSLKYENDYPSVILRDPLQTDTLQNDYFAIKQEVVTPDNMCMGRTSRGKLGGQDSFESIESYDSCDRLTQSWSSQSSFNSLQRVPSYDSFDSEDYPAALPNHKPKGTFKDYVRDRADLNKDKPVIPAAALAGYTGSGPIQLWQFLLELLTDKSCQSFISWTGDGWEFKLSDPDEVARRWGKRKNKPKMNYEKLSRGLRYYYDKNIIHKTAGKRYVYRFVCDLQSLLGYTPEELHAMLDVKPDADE
Sequence,E-score
ACAGGAAT,0.287
CCGGAACC,0.457
ACCGGAGG,0.432
TACGGAAA,0.399

# Block 3
# Target: Histone acetyltransferase KAT6A, both winged helices, GST fusion (KAT6A, Homo sapiens, UniProt Q92794, residues 1-181)
# Technique: protein binding microarray
# Form: double-stranded DNA, one strand shown
# Medium: in vitro
# Tested at: not given
# Setting: 8-mer, flanks averaged, mean of 2 arrays, mostly near background
# Baseline: not given
# Direction: higher = stronger binding
# Residues (chain): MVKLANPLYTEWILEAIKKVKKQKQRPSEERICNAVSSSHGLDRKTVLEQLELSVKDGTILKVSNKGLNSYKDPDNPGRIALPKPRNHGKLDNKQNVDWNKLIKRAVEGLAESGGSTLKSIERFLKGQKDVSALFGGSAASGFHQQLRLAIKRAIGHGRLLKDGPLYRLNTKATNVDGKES
Sequence,E-score
ACTATCGG,0.123
CCTCCTCG,-0.186
TGACTTAA,-0.155
ACTGACCT,-0.231

# Single results of other studies
Substance,target,test,test system,setting,how to read,measurement,result
"PhoQ, residues 284 288 289 292 302 303 NSMLDC","PhoP, residues 12 14 15 18 19 IFFTR (Escherichia coli, UniProt P23836)","Sort-seq, measured: YFP reporter",E. coli,"PhoQ-PhoP variant library, added: 10 µM Mg2+","baseline: high Mg2+ state, higher = stronger signaling",fold induction,7.71

# Repeated from above (block 2):
Sequence,E-score
ACCGGAGG,0.432
ACAGGAAT,0.287
